# Published values of several laboratories.
# Compare with care: the assays were run in different laboratories.
# Cell line: MDA-MB-231
SMILES,assay,system,setting,scale,endpoint,value
N=C(N)NCCC[C@H](NC(=O)[C@H](Cc1c[nH]c2ccccc12)NC(=O)[C@H](CCC(N)=O)NC(=O)[C@@H](N)Cc1c[nH]c2ccccc12)C(=O)N[C@@H](Cc1c[nH]c2ccccc12)C(=O)N[C@@H](CCC(N)=O)C(=O)N[C@@H](Cc1c[nH]c2ccccc12)C(N)=O,,,,reference: fibroblast IC50 over MDA-MB-231 IC50,selectivity ratio,0.3
C=C1C(=O)OC2CC3=C[C@@H](C/C(C)=C/C(OC(=O)Cc4cccc5ccccc45)[C@H]12)OC3=O (stereo partly drawn),Boyden chamber,,"1.25 µM, 24 h",reference: vehicle,migration inhibition,10%
CCC(=C(c1ccc(O)cc1)c1ccc(Cl)cc1)c1ccc(OC)cc1,,,,,GI50,1.3 µM
COc1cccc(Cc2c[nH]c3ncc(C(F)(F)F)cc23)c1,cell growth or viability,,"10 µM, 72 h",,inhibition,15%
CC1(C)C(=CC=C2CCCC(C=CC3=[N+](CCCCCC(=O)O)c4ccccc4C3(C)C)=C2c2ccccc2)N(CCCCCC(=O)O)c2ccccc21,flow cytometry,serum-free medium,"20 µM, with: 250 µM bromosulfophthalein pre-block",,uptake decrease,40 to 50%
Cc1cccc(O)c1C(=O)OCC1(O)C(Nc2cccc3ccccc23)C(N)C(NC(=O)N(C)C)(C(C)O)C1(C)O (stereo not drawn),cell growth or viability,,,,EC50,1.84 µM
FC(F)(F)c1cnc2[nH]cc(Cc3ccc(OCc4ccccc4)cc3)c2c1,cell growth or viability,,"10 µM, 72 h",,inhibition,25%
N=C(N)NCCC[C@H](NC(=O)[C@H](Cc1c[nH]c2ccccc12)NC(=O)[C@H](CCC(N)=O)NC(=O)[C@H](Cc1c[nH]c2ccccc12)NC(=O)[C@H](CCCNC(=N)N)NC(=O)[C@H](Cc1c[nH]c2ccccc12)NC(=O)[C@H](CCC(N)=O)NC(=O)[C@H](Cc1c[nH]c2ccccc12)NC(=O)[C@@H](N)CCCNC(=N)N)C(N)=O,,,,reference: fibroblast IC50 over MDA-MB-231 IC50,selectivity ratio,> 1.3
C=CC(OC(C)=O)c1cc(OC)c(OC(C)=O)c(OC)c1 (stereo not drawn),"Western blot, refers to: phospho-FAK/FAK",,"concentration not given, 24 h",,phospho-FAK reduction,70 to 94%
CC(=O)c1cccc(NC2C(N)C(NC(=O)N(C)C)(C(C)O)C(O)C2(O)COC(=O)c2c(C)cccc2O)c1 (stereo not drawn),cytotoxicity,,free compound,,EC50,0.05 µM
C[C@@H]1O[C@@H](OC(=O)/C=C/c2ccc(O)cc2)[C@H](OC(=O)/C=C/c2ccc(O)cc2)[C@H](O)[C@H]1O,wound healing,,"10 µM, 24 h, with: HGF",,cell migration,decreased
CC1OC2OC3C4=C(OC3(C)C12O)C(=O)c1c(O)cccc1C4=O (stereo not drawn),"cell growth or viability, MTT",,48 h,,EC50,1.25 µg/mL
COC(=O)C1CCCN1C(=O)C(Cc1ccccc1)N(C)C(=O)CC(O)C(CC(C)C)NC(=O)C(CC(C)C)N(C)C(=O)C(CC(C)C)NC(=O)C(O)C(C)C (stereo not drawn),"RNA-seq pathway analysis, refers to: unfolded protein response",,"40 µM, 12 h",direction not given,pathway activation z-score,2
CC(=O)O[C@H]1C(=O)[C@]2(C)[C@@H](OC(=O)[C@H](N)CSC3CC(=O)N(CCC(=O)Nc4ccc(-c5ccc(/N=N/c6ccc7c(S(=O)(=O)O)cc(S(=O)(=O)O)c(N)c7c6O)c(C)c5)cc4C)C3=O)C[C@H]3OC[C@@]3(OC(C)=O)[C@H]2[C@H](OC(=O)c2ccccc2)[C@]2(O)C[C@H](OC(=O)[C@H](O)[C@@H](NC(=O)c3ccccc3)c3ccccc3)C(C)=C1C2(C)C (stereo partly drawn),annexin V/PI flow cytometry,,"concentration not given, 24 h",,late apoptotic cells,27.5%
CN[C@@H](C)C(=O)N[C@H]1CN(C(=O)Cc2ccccc2)CC[C@H]2CC[C@@H](C(=O)NCc3ccc(C(F)(F)F)cc3)N2C1=O,"caspase-8, caspase-3, PARP cleavage, western blot",,24 h,,onset concentration,≥ 1 µM
CC1(C)C(=CC=C2C[N+](C)(C)CC(C=CC3=[N+](CCCCCC(=O)O)c4ccccc4C3(C)C)=C2Cl)N(CCCCCC(=O)O)c2ccccc21,,,with: FBS 10%,reference: serum-free medium,cellular uptake,no effect
Clc1ccc2ccc3[n+](c2c1)[Ir-3]12([c]4ccccc4-3)([c]3ccccc3-c3ccc4ccc(Cl)cc4[n+]31)[n+]1ccccc1-c1cccc[n+]12.F[P-](F)(F)(F)(F)F,"qPCR, refers to: Mcl-1",,3 µM,,mRNA level,inhibited
CCCCCCCCCCCCCC(=O)N1CCC[C@H]1C(=O)N[C@@H](CO)C(=O)N[C@@H](CCC(N)=O)C(=O)N[C@@H](CO)C(=O)N[C@@H](CCCCNC(=O)c1ccc(Br)cc1)C(=O)N[C@@H](CO)C(=O)N[C@@H](CCCCNC(=O)c1ccc(Br)cc1)C(=O)N[C@@H](C)C(=O)O,annexin V/PI flow cytometry,,"50 µM, 48 h",,apoptotic cells,54%
COc1ccc(C=CC(=O)c2cccc(O)c2)cc1,Western blot,,"concentration not given, 48 h, with: estradiol 1 nM",,cyclin A protein level,decreased
FC(F)(F)c1ccc(Cc2c[nH]c3ncc(C(F)(F)F)cc23)cc1,cell growth or viability,,"10 µM, 72 h",,inhibition,20%
C=CC(OC(C)=O)c1ccc(OC(C)=O)c(OC)c1 (stereo not drawn),"Western blot, refers to: phospho-Akt/Akt",,"concentration not given, 24 h",,phospho-Akt reduction,70 to 94%
Cc1ccc(C(C)C)cc1.O=C(N=P(c1ccccc1)(c1ccccc1)c1ccccc1)c1ccccn1.[Cl-].[Cl][Ru+],PI flow cytometry,,"IC20, 24 h",,G2/M cells,24%
FC(F)(F)Oc1cccc(Cc2c[nH]c3ncc(C(F)(F)F)cc23)c1,cell growth or viability,,"10 µM, 72 h",,inhibition,25%
CCC(=C(c1ccc(Cl)cc1)c1ccc(OCCCN(C)C)cc1)c1ccc(OC)cc1,,,,,GI50,1.3 µM
COc1ccc(OCC(=O)c2ccc(O)c(C)c2O)cc1,"cell growth or viability, MTT",,"100 µM, 48 h",,inhibition,99%
CC(=O)N[C@@H](Cc1ccc(O)cc1)CN(CC(=O)N[C@@H](CCCCN)CN(CC(=O)N[C@@H](Cc1ccccc1)CN(CC(=O)N[C@H]1CCCCNc2c(F)c(F)c(c(F)c2F)S(=O)(=O)c2c(F)c(F)c(c(F)c2F)NCCCC[C@@H](CN(CC(=O)N[C@@H](C)CN(CC(N)=O)S(C)(=O)=O)S(C)(=O)=O)NC(=O)CN(S(=O)(=O)CC(C)C)C[C@H](Cc2ccccc2)NC(=O)CN(S(=O)(=O)CCN)C1)S(=O)(=O)c1ccc(Cl)cc1)S(=O)(=O)CCN)S(C)(=O)=O,"cell growth or viability, CCK-8",,72 h,,GI50,14.5 µM
CCCCCCCCCCCCCCCOC(=O)/C=C/c1cc(O)c(O)c(OC)c1,propidium iodide flow cytometry,,"concentration not given, 24 h",,cells in S phase,20%
COc1cc(Cc2c[nH]c3ncc(C(F)(F)F)cc23)cc(OC)c1,cell growth or viability,,"10 µM, 72 h",,inhibition,22%
N=C(N)NCCC[C@H](NC(=O)[C@H](Cc1c[nH]c2ccccc12)NC(=O)[C@H](CCC(N)=O)NC(=O)[C@H](Cc1c[nH]c2ccccc12)NC(=O)[C@@H](N)CCCNC(=N)N)C(=O)N[C@@H](Cc1c[nH]c2ccccc12)C(=O)N[C@@H](CCC(N)=O)C(=O)N[C@@H](Cc1c[nH]c2ccccc12)C(N)=O,,,,reference: fibroblast IC50 over MDA-MB-231 IC50,selectivity ratio,1
C/C(=N\N(c1ccccc1)c1ccccc1)c1ccc(O)cc1,Western blot,,"concentration not given, 48 h, with: estradiol 1 nM",,CDK2 protein level,decreased
O=C(Cc1ccccc1)Nc1nc2ccccc2n1Cc1ccccc1,"qPCR, refers to: HIF1A",,"10 µM, 8 h, normoxia",,mRNA level,decreased
[Ru+2].c1ccc(-c2ccc3c(n2)c2ncccc2c2nc4cc5ccccc5cc4nc32)nc1.c1ccc(-c2ccc3c(n2)c2ncccc2c2nc4cc5ccccc5cc4nc32)nc1,"cell growth or viability, MTT",,dark,,EC50,> 25 µM
C=C[C@H](OC(C)=O)c1ccc(OC(C)=O)cc1,Western blot,,"IC50, 24 h",reference: untreated,Bax protein level,6.2 fold
Fc1ccc(F)c(Cc2c[nH]c3ncc(C(F)(F)F)cc23)c1,cell growth or viability,,"10 µM, 72 h",,inhibition,14%
C=CC(OC(C)=O)c1ccc(OC)cc1 (stereo not drawn),"cell growth or viability, MTT",,,,IC20,45 µM
CCC(C(=O)O)C1CCC(C)C(C(C)C(O)C(C)C(=O)C(CC)C2OC3(C=CC(=O)C4(CCC(C)(C5CCC(O)(CC)C(C)O5)O4)O3)C(C)CC2C)O1 (stereo not drawn),MTT,,with: benzhydroxamic acid 142.0 µM,,combination index,1.9
CCCCCCCCCCCCCC(=O)N1CCC[C@H]1C(=O)N[C@@H](CO)C(=O)N[C@@H](CCC(N)=O)C(=O)N[C@@H](CO)C(=O)N[C@@H](CO)C(=O)N[C@@H](CO)C(=O)N[C@@H](CCC(=O)O)C(=O)N[C@@H](C)C(=O)O,annexin V/PI flow cytometry,,"50 µM, 48 h",,apoptotic cells,30%
CC(=O)O[C@H]1C2=C(C(=O)C(O)=C(C(C)C)C2=O)[C@@]2(C)CCCC(C)(C)[C@@H]2[C@@H]1O,"cell growth or viability, SRB",,48 h,,GI50,> 100 µM
CCN(CC)C1=[S+][Au-2]2([S]1)[c]1ccccc1-c1cccc[n+]12.F[P-](F)(F)(F)(F)F (stereo not drawn),ICP-MS,,"10 µM, 18 h",,mitochondrial gold accumulation,11 nmol/20 million cells

# A few entries again:
SMILES,assay,system,setting,scale,endpoint,value
CC(=O)N[C@@H](Cc1ccc(O)cc1)CN(CC(=O)N[C@@H](CCCCN)CN(CC(=O)N[C@@H](Cc1ccccc1)CN(CC(=O)N[C@H]1CCCCNc2c(F)c(F)c(c(F)c2F)S(=O)(=O)c2c(F)c(F)c(c(F)c2F)NCCCC[C@@H](CN(CC(=O)N[C@@H](C)CN(CC(N)=O)S(C)(=O)=O)S(C)(=O)=O)NC(=O)CN(S(=O)(=O)CC(C)C)C[C@H](Cc2ccccc2)NC(=O)CN(S(=O)(=O)CCN)C1)S(=O)(=O)c1ccc(Cl)cc1)S(=O)(=O)CCN)S(C)(=O)=O,"cell growth or viability, CCK-8",,72 h,,GI50,14.5 µM
[Ru+2].c1ccc(-c2ccc3c(n2)c2ncccc2c2nc4cc5ccccc5cc4nc32)nc1.c1ccc(-c2ccc3c(n2)c2ncccc2c2nc4cc5ccccc5cc4nc32)nc1,"cell growth or viability, MTT",,dark,,EC50,> 25 µM
C=CC(OC(C)=O)c1ccc(OC)cc1 (stereo not drawn),"cell growth or viability, MTT",,,,IC20,45 µM
FC(F)(F)Oc1cccc(Cc2c[nH]c3ncc(C(F)(F)F)cc23)c1,cell growth or viability,,"10 µM, 72 h",,inhibition,25%
C=CC(OC(C)=O)c1ccc(OC(C)=O)c(OC)c1 (stereo not drawn),"Western blot, refers to: phospho-Akt/Akt",,"concentration not given, 24 h",,phospho-Akt reduction,70 to 94%
CCC(C(=O)O)C1CCC(C)C(C(C)C(O)C(C)C(=O)C(CC)C2OC3(C=CC(=O)C4(CCC(C)(C5CCC(O)(CC)C(C)O5)O4)O3)C(C)CC2C)O1 (stereo not drawn),MTT,,with: benzhydroxamic acid 142.0 µM,,combination index,1.9
